Values quoted from earlier work that unrelated publications cite.
Each line is one published result; not all experiments were run side by side. ± gives the spread as reported.

SMILES | tested on | test | test system | conditions | measurement | value
CC1=CCC23OC2(C)CCC2C(CN(C)C)C(=O)OC2C13.Cl (stereo not drawn) | – | – | sarcoma M-1, rat | intraperitoneal and intratumoral, dose not given | tumour growth inhibition | 72 to 79%
CC(C)(C)C1=CC(=NNC(=O)c2ccncc2)C=C(C(C)(C)C)C1=O | NR-9456 (mouse macrophages) | cell viability | – | – | IC50 | > 100000 nM
CC1=C(CO)C(=O)O[C@@H]([C@@H](C)[C@H]2CC[C@H]3[C@@H]4C[C@H]5O[C@]56[C@@H](O)C=CC(=O)[C@]6(C)[C@H]4CC[C@]23C)C1 | Hep3B | cell growth | – | – | IC50 | 130 nM
CN1CCN(c2cc(-c3ccccc3CO)c(N(C)C(=O)C(C)(C)c3cc(C(F)(F)F)cc(C(F)(F)F)c3)cn2)CC1 | – | – | healthy volunteers, plasma | oral, dose not given, netupitant-palonosetron, fed | half-life | 61.9 h
COc1ccccc1NC(=O)N[C@H](C(=O)Nc1ccc(C(=O)NO)cc1)c1ccccc1 | KG-1 | cell viability, MTT | – | – | IC50 | 2800 nM
COCCOCCOCCOCCC(=O)NCc1cc(CNC(=O)CCOCCOCCOCCOC)cc(-c2cc3cc4nc(c(OC)c5[nH]c(cc6nc(cc2[nH]3)CC6(C)C)cc5-c2cc(CNC(=O)CCOCCOCCOCCOC)cc(CNC(=O)CCOCCOCCOCCOC)c2)CC4(C)C)c1 | – | – | DMF | room temperature | singlet excited-state lifetime | 3.2 ns
O=C1OCC2=C1C(c1cccc([N+](=O)[O-])c1)C1=C(N2)C(=O)c2ccccc2C1=O (stereo not drawn) | HEK293 cells | cell growth | – | – | IC50 | 1470 ± 40 nM
Oc1cccc(-c2cccc(O)n2)n1.[Cl-].[Cl-].[Ru+2].c1cnc2c(c1)c1c(c3cccnc32)OCCO1.c1cnc2c(c1)c1c(c3cccnc32)OCCO1 | MDA-MB-231 | cell viability | – | with: blue light 450 nm, 1 h | IC50 | 3700 nM
O=C1OCC2=C1C(c1cccc(Br)c1)C1=C(N2)C(=O)c2ccccc2C1=O (stereo not drawn) | MCF7 cells | cell growth | – | – | IC50 | > 2500 nM
Oc1cccc(-c2cccc(O)n2)n1.[Cl-].[Cl-].[Ru+2].c1cnc2c(c1)ccc1cccnc12.c1cnc2c(c1)ccc1cccnc12 | MCF-10A | cell viability | – | dark | IC50 | 110000 nM
CN1C(=O)[C@@H](Cc2ccc(O)cc2)NC(=O)CNC(=O)[C@H](Cc2ccc3ccccc3c2)NC(=O)[C@H](CCCNC(=N)N)NC(=O)[C@H]1CCCNC(=O)c1ccc(CNC(=O)CN2CCN(CC(=O)O)CCN(CC(=O)O)CCN(CC(=O)O)CC2)cc1 [gallium-68 labelled] | – | PET-based dosimetry | human patients, gall bladder wall | – | absorbed dose coefficient | 0.0146 mGy/MBq
[Cl-].[Cl-].[Ru+2].c1ccc(-c2ccccn2)nc1.c1ccc(-c2ccccn2)nc1.c1cnc2c(c1)ccc1cccnc12 | Caco-2 | – | – | light irradiation | IC50 | > 100000 nM

Repeated from above:
SMILES | tested on | test | test system | conditions | measurement | value
CN1CCN(c2cc(-c3ccccc3CO)c(N(C)C(=O)C(C)(C)c3cc(C(F)(F)F)cc(C(F)(F)F)c3)cn2)CC1 | – | – | healthy volunteers, plasma | oral, dose not given, netupitant-palonosetron, fed | half-life | 61.9 h
